{"data": "Experimental data pooled from the literature", "organism": "Plasmodium falciparum", "note": "Protocols differ between the studies behind these lines. ± marks the error that the study gave."}
{"Structure (SMILES)": "CCNCC#CCNc1ccnc2cc(Cl)ccc12", "assay": "parasite growth", "test system": "RF12", "measurement": "IC50", "result": "0.094 µM"}
{"Structure (SMILES)": "CCC1(CC)CC(=O)N(C2CCOc3ccc(C(=O)NC4CC(C)(C)Oc5ccccc54)cc32)C(=N)N1 (stereo not shown)", "test system": "3D7", "setting": "10 × EC50, 120 h", "measurement": "log PRR", "result": 2.67}
{"Structure (SMILES)": "CC1=N[C@H](C)Cc2c(-c3ccc4ccccc4c3)ccc(O)c21", "assay": "asexual parasite growth, SYBR Green I", "test system": "clinical isolate SB_04, Malawi", "measurement": "IC50", "result": "0.7944 ± 0.0052 µM"}
{"Structure (SMILES)": "Cc1cc(C(=O)N[C@@H](CC(=O)NC(C)(C)C)C(=O)NCCNC(=O)c2cc(-c3ccccc3)ccn2)no1", "assay": "parasite growth", "test system": "NF54", "setting": "48 h, gametocyte", "measurement": "EC50", "result": "0.14 µM"}
{"Structure (SMILES)": "CN1CCN(C(=O)c2ccc(-c3cc4nccc(-c5ccc6cnccc6c5)c4o3)cc2)CC1", "assay": "[3H]-hypoxanthine incorporation", "test system": "Dd2", "setting": "72 h", "measurement": "EC50", "result": "0.005 µM"}
{"Structure (SMILES)": "COc1cncc(-c2cc(F)cc(CNC(=O)c3cc(N4CC[C@@](C#N)(C5CC5)C4=O)cc(C)n3)c2)c1", "assay": "parasite growth", "test system": "cPRS conditional knockdown line", "setting": "72 h, added: 12.5 nM anhydrotetracycline", "measurement": "IC50", "result": "0.034 µM"}
{"Structure (SMILES)": "COc1cccc2c(-c3ccc(O)c4c3CCNC4)ccc(O)c12", "assay": "asexual parasite proliferation, SYBR Green I fluorescence", "test system": "HB3", "measurement": "IC50", "result": "0.553 ± 0.081 µM"}
{"Structure (SMILES)": "CC(C)(C)NC(=O)CC(NC(=O)CCc1ccccc1)C(=O)NCCNC(=O)c1ccc(-c2ccccc2)cc1 (stereo not shown)", "assay": "parasite growth, SYBR Green", "test system": "3D7", "setting": "72 h, blood stage", "measurement": "EC50", "result": "> 2.77 µM"}
{"Structure (SMILES)": "COc1cccc2c(-c3ccc(O)c4c3CCN=C4)ccc(OC(C)C)c12", "assay": "asexual parasite proliferation, SYBR Green I fluorescence", "test system": "7G8", "measurement": "IC50", "result": "0.087 ± 0.019 µM"}
{"Structure (SMILES)": "CC(NC(=O)c1cccc(C(c2ccccc2)N2C(=N)NC(C)(C(C)C)CC2=O)c1)c1ccccc1 (stereo not shown)", "assay": "parasite growth", "setting": "72 h, blood stage", "measurement": "EC50", "result": "0.0105 µM"}
{"Structure (SMILES)": "Oc1ccc(-c2ccc(O)c3ccccc23)c2c1C=NCC2", "assay": "asexual parasite proliferation, SYBR Green I fluorescence", "test system": "Dd2", "measurement": "IC50", "result": "1.62 ± 0.099 µM"}
{"Structure (SMILES)": "CCc1nc(N)nc(N)c1-c1ccc(Cl)cc1", "test system": "3D7", "setting": "10 × EC50, 120 h, 99% clearance", "measurement": "parasite clearance time", "result": "58.5 h"}
{"Structure (SMILES)": "Cc1cc(C(=O)N[C@@H](CC(=O)NC(C)(C)C)C(=O)NCCNC(=O)c2cccc(-n3cccn3)c2)no1", "test system": "chloroquine-resistant field isolate, human", "measurement": "EC50", "result": "0.034 µM"}
{"Structure (SMILES)": "Cc1cc(N2CC[C@@](C#N)(C3(C)CC3)C2=O)cc(C(=O)NCc2cc(F)cc(-c3cnn(C)c3)c2)n1", "test system": "Pf3D70087/N9, humanized SCID mouse", "setting": "10 mg/kg, 4-day test, day 6 post-infection", "measurement": "parasitaemia", "result": "1.6%"}
{"Structure (SMILES)": "COCCN(C)CC(=O)NC(Cc1ccc(-c2ccccc2)cc1)B(O)O (stereo not shown)", "assay": "[3H]-hypoxanthine incorporation", "test system": "Cam3.1, artemisinin-resistant", "measurement": "IC50", "result": "0.157 ± 0.052 µM"}
{"Structure (SMILES)": "COc1cccc2c(-c3ccc(O)c4c3C[C@@H](C)N[C@@H]4C)c(C)cc(O)c12", "assay": "asexual parasite proliferation, SYBR Green I fluorescence", "test system": "Dd2", "measurement": "IC50", "result": "0.0597 ± 0.0069 µM"}
{"Structure (SMILES)": "Cc1cc(C(=O)N[C@@H](CC(=O)NC(C)(C)C)C(=O)NCCNC(=O)c2cccc(-c3ccn[nH]3)c2)no1", "assay": "female gamete activation", "test system": "NF54", "setting": "48 h", "measurement": "EC50", "result": "> 10 µM"}
{"Structure (SMILES)": "Cc1cc(N2CCC(CO)(C3CC3)C2=O)cc(C(=O)NCc2cc(F)cc(-c3cnn(C)c3)c2)n1 (stereo not shown)", "assay": "parasite growth", "test system": "conditional knockdown control line", "setting": "120 h, added: 3 nM anhydrotetracycline", "measurement": "IC50", "result": "0.198 µM"}
{"Structure (SMILES)": "COc1cccc2c(-c3ccc4c(c3O)[C@@H](C)N[C@H](C)C4)c(CO)cc(OC)c12", "assay": "asexual parasite proliferation, SYBR Green I fluorescence", "test system": "K1", "measurement": "IC50", "result": "0.0292 ± 0.0058 µM"}
{"Structure (SMILES)": "CC(C)(C)NC(=O)CC(NC(=O)CCc1ccccc1)C(=O)NCCNC(=O)c1cccc(-c2ccccc2)c1 (stereo not shown)", "assay": "parasite growth", "test system": "NF54", "setting": "48 h, gametocyte", "measurement": "EC50", "result": "0.0282 µM"}
{"Structure (SMILES)": "COc1cc(O)c(-c2cc(-c3cc(-c4c(O)cc(OC)c5c4C[C@@H](C)N[C@@H]5C)c4cc(C)cc(OC)c4c3O)c(O)c3c(OC)cc(C)cc23)c2c1[C@@H](C)N[C@H](C)C2", "assay": "asexual parasite proliferation, SYBR Green I fluorescence", "test system": "K1", "measurement": "IC50", "result": "0.115 ± 0.026 µM"}
{"Structure (SMILES)": "Cc1cc(N2CC[C@@](C#N)(C3CC3)C2=O)cc(NC(=O)Cc2ccccc2)n1", "assay": "parasite growth", "test system": "conditional knockdown control line", "setting": "72 h, added: 50 nM anhydrotetracycline", "measurement": "IC50", "result": "0.037 µM"}
{"note": "Some of these lines once more:"}
{"Structure (SMILES)": "COc1cncc(-c2cc(F)cc(CNC(=O)c3cc(N4CC[C@@](C#N)(C5CC5)C4=O)cc(C)n3)c2)c1", "assay": "parasite growth", "test system": "cPRS conditional knockdown line", "setting": "72 h, added: 12.5 nM anhydrotetracycline", "measurement": "IC50", "result": "0.034 µM"}
